Published values from different studies.
Numbered parts are unrelated; each lists some results of a single study. Positions count from the first letter of the parent shown.

Set 1
Target: CCNA2, cyclin fold, Cln2 fusion (human)
Technique: yeast growth competition, sequencing
Matrix: yeast
Setting: strong parent motif
Reference: not given
Reading: higher = stronger binding
Endpoint: normalised enrichment score
Parent: RBL1 docking peptide (human); GSAKRRLFGEDPP; partner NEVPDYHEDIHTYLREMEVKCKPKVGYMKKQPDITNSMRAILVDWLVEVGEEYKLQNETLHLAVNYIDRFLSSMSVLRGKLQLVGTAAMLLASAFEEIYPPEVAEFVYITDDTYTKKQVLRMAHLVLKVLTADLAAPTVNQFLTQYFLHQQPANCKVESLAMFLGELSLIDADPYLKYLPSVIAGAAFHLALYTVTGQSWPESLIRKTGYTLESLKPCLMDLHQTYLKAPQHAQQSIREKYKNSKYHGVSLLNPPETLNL
P12C: 5.48
G9W: 6.34
A3I: 3.66
K4T: 1.86
R6P: 0.482
K4A: 5.11
S2M: 5.54
R5P: -0.142
R6S: 3.86
R5F: 0.235
P13Q: 5.31
R5E: 0.323
F8M: 0.174
S2H: 6.44
R5A L7A: -0.684
R5L: 1.35
G1N: 5.57
E10P: 6.16
P12V: 5.56
L7G: 0.575
G1H: 6.13
F8V: 0.843
G1R: 7.07

Set 2
Target: Ras GTPase-activating protein-binding protein 1, full length (G3BP1, Homo sapiens, UniProt Q13283)
Sequence of UniProt Q13283 (whole entry, looked up): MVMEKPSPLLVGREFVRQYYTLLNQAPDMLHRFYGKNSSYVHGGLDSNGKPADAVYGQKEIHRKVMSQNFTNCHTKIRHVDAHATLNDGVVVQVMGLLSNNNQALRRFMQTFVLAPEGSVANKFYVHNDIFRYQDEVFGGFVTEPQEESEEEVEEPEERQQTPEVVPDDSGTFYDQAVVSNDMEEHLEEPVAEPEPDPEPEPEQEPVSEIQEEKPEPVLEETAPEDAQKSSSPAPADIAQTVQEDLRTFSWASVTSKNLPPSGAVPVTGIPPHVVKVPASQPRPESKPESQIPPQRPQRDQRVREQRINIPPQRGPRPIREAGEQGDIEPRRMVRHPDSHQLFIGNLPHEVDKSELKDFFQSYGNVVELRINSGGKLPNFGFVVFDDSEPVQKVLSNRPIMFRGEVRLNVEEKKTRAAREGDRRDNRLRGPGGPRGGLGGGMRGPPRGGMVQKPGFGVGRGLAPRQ
Technique: RNA Bind-n-Seq
Molecule type: RNA
Matrix: in vitro
Tested at: 200 nM
Setting: whole 134-nt RNA, ends assumed
Together with: 150 mM KCl
Reference: input library
Reading: higher = stronger binding
Endpoint: log2 enrichment
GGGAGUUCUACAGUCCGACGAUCUAACUUUAGAGGAGGAUCUGAUGGAUAUGGCAGUGGACGUGGAUUUGGGGAUGGCUAUAAUGGGUAUGGUGGAGGACCUGGAGGUGGCAAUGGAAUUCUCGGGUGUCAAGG: 0.281
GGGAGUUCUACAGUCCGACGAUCUCAAGUCCUGUGCUACACAUCGUAUGUACCGAAUCGGUGGUUUUUGGAAAAAGGAAAGUAUUAUGUUACGCCGUUCGGAUCUGCACUUCCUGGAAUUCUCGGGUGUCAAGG: -0.717
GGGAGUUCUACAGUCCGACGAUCAGUCCUGUGCUACACAUCGUAUGUACCGAAUCGGUUUUUUUGGAAAAAAAGGUUUGGAAAGUAUUAUGUUACGCCGUUCGGAUCUGCACUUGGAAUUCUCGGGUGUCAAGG: -1.72
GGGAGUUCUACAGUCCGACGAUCAGUCCUGUGCUACACAUCGUAUGUACCGAAUCGGCCCCCGGGGCCCCCGGCCCCCGGGAAAGUAUUAUGUUACGCCGUUCGGAUCUGCACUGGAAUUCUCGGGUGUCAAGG: -1.04
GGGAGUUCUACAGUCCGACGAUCUGUGUGCAUUCCCUGCGCCAAGGGCUUCCCCAGCUCUGAGCAGCUCAAUGCGCACGUGGAGACUCACACGGAGGAAGAGCUGUUCAUCAAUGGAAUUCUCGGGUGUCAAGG: -1.6
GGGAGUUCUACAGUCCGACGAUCUCAAGUCCUGUGCUACACAUCGUAUGUACCGAAUCGGAAAGGAAAGGUUUUUGGAAAGUAUUAUGUUACGCCGUUCGGAUCUGCACUUCCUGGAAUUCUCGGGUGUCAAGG: -1.19
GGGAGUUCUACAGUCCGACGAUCGCAGGAAGUAAAAACAAAUGGAAAUGCUUCGGAUAGUGGCAGGGGUGGGGGUUGCUAAGGAAAGGGUGGGAUGGGAAAAGGUAAAGAGUUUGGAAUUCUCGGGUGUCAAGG: 0.779
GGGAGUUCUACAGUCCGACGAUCGUCCUGUGCUACACAUCGUAUGUACCGAAUCGGGGUUUUUGGUUUUUGGUUUUUGGGGAAAGUAUUAUGUUACGCCGUUCGGAUCUGCACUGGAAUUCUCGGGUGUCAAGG: -0.787
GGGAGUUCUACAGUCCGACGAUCGUCCUGUGCUACACAUCGUAUGUACCGAAUCGGGGAGGGGAAAAAAAGGGGAAAGGGGAAAGUAUUAUGUUACGCCGUUCGGAUCUGCACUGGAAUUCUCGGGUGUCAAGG: 0.675
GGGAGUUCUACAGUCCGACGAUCUGGCCCUGGUGGCAUGCGGGGAGAAAGAGGUGGCCUCAUGGAUCGUGGUGGUCCCGGUGGAAUGUUCAGAGGUGGCCGUGGUGGAGACAGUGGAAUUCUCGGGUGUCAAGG: 0.283
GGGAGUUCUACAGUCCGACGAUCUCCUCAAGUCCUGUGCUACACAUCGUAUGUACCGAAUCGGCGGGCGGCGGGAAAGUAUUAUGUUACGCCGUUCGGAUCUGCACUUCCAGCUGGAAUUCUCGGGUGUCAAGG: -0.323
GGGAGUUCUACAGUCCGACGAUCCUCAAGUCCUGUGCUACACAUCGUAUGUACCGAAUCGGUGGUGGAAAAAAAGGAAAGUAUUAUGUUACGCCGUUCGGAUCUGCACUUCCAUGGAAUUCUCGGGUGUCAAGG: -0.313
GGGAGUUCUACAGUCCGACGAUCAAGUCGCGUGUCUAGGUGAGUCGCGGUGGGUCCUCGCUUGCAGUUCAGCGACCACGGUGGGUACCGUUUUUGCGAGGAUUGUUUGUCCCCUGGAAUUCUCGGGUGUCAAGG: -1.56
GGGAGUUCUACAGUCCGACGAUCCCUGUGCUACACAUCGUAUGUACCGAAUCGGGUUUUUUUGGGUUUUUUUGGUUUUUUUGGAAAGUAUUAUGUUACGCCGUUCGGAUCUGCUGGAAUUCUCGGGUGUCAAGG: -0.731

Set 3
Target: ABI1, truncated, D143A, DHFR fusion (Arabidopsis thaliana)
Technique: DHFR PCA, deep sequencing
Matrix: yeast
Setting: methotrexate growth selection, single substitutions
Together with: (+)-ABA 0.032 µM
Reference: wild-type fitted maximum
Reading: higher = stronger binding
Endpoint: relative binding score
Parent: PYL1, truncated, DHFR fusion (Arabidopsis thaliana); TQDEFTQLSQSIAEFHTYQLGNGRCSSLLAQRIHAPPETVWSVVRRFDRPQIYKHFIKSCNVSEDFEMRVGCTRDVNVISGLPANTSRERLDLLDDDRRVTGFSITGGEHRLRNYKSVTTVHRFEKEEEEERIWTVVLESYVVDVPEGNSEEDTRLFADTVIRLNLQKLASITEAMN
E125G: 36.8%
E139G: 0.0895%
N22C: 8.46%
Q51Y: -12%
T1G: 19.4%
R32V: 42.5%
T120P: 9.14%
A84E: 19.5%
T73N: -0.514%
T106L: 58.8%
E14P: -3.88%
Y141W: -5.5%
A35T: 0.639%
K58R: 18.9%
V142E: 4.84%
A158R: 2.15%
N114G: 7.68%
I12L: 1.91%
V76R: -1.61%
V118F: -2.42%

Set 4
Target: RING finger protein unkempt homolog, zinc fingers 1-6, GST-SBP tag (UNK, Homo sapiens, UniProt Q9C0B0, residues 30-357)
Technique: RNA Bind-n-Seq
Molecule type: RNA
Matrix: in vitro
Tested at: not given
Setting: RNA with constant flanks, human and mouse sites, ends assumed
Reference: input RNA pool
Reading: higher = stronger binding
Endpoint: bound/input enrichment
Construct (chain): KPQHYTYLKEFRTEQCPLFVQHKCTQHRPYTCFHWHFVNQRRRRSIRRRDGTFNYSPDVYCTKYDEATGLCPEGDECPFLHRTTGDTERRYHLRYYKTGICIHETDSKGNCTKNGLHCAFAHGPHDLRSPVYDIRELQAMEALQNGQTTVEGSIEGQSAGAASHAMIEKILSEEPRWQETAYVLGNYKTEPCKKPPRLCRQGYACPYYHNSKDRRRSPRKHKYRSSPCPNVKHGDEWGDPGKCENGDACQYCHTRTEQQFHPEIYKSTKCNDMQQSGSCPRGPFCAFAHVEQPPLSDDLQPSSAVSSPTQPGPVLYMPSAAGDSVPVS
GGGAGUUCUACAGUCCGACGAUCCUCAAAAGGAAGUAAGGAUUUUACAAGACAGAUUAAAAAAAAAUUGUUUUGUCCAAAAUAUAGUUGUUGUUGAUUUUUUUUUAAGUUUUCUAAGCAAUAUUUUUCAAGCCAGAAGUCCUCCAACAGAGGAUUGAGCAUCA: 2.49 ratio
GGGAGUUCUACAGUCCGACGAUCCUGGGACCUGAAGGACUGGAUCUGAUUGAGAAGCUGCUCCAGAACAGAAUUACAAUUGUAGAUCGGUUCCUUAAUUCCUCGAGCGAUCAUAAGUUUCAAGUUCUCCAAGAUAGUUGUAAACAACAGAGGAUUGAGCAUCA: 0.463 ratio
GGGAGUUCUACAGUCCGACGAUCGACUCUCAGUUUAACAUUAUGUCUGUUAAAACUCUGACAAGCAUUCCGAUUUUGUUAUUUAUUAGCAGUGUCAAGUCUUGUGACUAUUAAAAGAACCACUGUAAUUCAAAACAUCAGCGUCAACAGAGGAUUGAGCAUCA: 0.151 ratio
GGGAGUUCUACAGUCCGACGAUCGCUGAAAAUAAAGUGGACAUUUUAGAAAUGCUACAGAAAGCCAAAGUAGAUUUAAAACCUCUUCUUUCUAGCCUUUCUGCAAAUAAAGAAAAACUUAAGGAGAGCUCACAUUCAGGGGUUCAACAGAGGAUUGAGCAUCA: 0.313 ratio
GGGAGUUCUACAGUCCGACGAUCACACUGGGCUCUUUGGAAGCUCUUCUUGAAUUUCUGAAAACAUCAGAGGUGCCAUAUGCAGGAAUUAACAUUGGCCCAGUCCAUAAAAAGGACGUUAUGAAGGCUUCAGUGAUGUUGGAACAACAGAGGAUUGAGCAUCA: 0.156 ratio
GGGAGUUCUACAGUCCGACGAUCCAGUCCUCAAUGUCUAUUGAAUUUGGCCAAGAAUCUCCUGAGCAAUCCCUUGCUAUGGACUUCAGUCGACAGUCUCCAGAUCACCCUACAGUGGGUGCAGGCGUGCUUCACAUCACUGAACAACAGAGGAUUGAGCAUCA: 0.0755 ratio
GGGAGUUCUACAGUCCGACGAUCUAUGACAGGGUUUCCAGAAAGGAAGCAAAGCCACAGAUUUGUCAACUGUCAGAGAGUUCAGAUUCUUCAGAUUCUGAAAGCGACUCAGAGAGUGAACCACAACAAGUUUCUGGCUACCACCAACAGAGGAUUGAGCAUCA: 0.0711 ratio
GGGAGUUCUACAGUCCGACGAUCUUUCAUUGGCAAGCCACAAUUAUGGGACCUAAUGACAGCCCAUAUCAAGGUGGUGUAUUCUUUUUGACAAUUCAUUUUCCUACAGACUACCCCUUCAAACCACCUAAGGUUGCAUUUACACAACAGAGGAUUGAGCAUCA: 0.189 ratio
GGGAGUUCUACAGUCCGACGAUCUAUUUGUGUUGGGAAGAAUGUUGUGGGGGUGGGGGGAAUUGAGUUGGGGGGUUAUUUUCUAAUUUUUUUUGUACAUUUGGAACAGUGACAAUAAAUGUGCCCCCUUUAUACUGUCGUUUUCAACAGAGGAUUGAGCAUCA: 3.32 ratio
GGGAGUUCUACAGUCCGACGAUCAUAUAGACCUAUGAUGUACAGGUACGACAUGUAUAGGUUACCUAGAUGUUAUGAGAAAUUUUAGUUUAUUGUGAGUACUCAAGUUGCUUAGAGAGCCACCAGGGUGAUUUGCUGCUGGCUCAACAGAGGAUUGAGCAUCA: 167 ratio
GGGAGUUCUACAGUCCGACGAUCAUACAAGCCUUACCAACAAUUACAGAAACAUUAAACACUAUGACACAUUACCUUUUUAGCUAUUUUUAAUAGUCUUCUAUUUUCACUCUUGAUAAGCUUAUAAAAUCAUGAUUGAAUCAGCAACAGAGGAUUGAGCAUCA: 13.3 ratio

Set 5
Target: Interferon regulatory factor 5, full length, phosphomimetic (IRF5, Homo sapiens, UniProt Q13568-2, residues 1-514, K96S/S451D/S453D/S456D/S462D)
Technique: protein-binding microarray
Molecule type: double-stranded DNA, one strand shown
Matrix: in vitro
Tested at: 250 nM
Setting: 60-bp whole probe
Together with: salmon DNA 0.4 mg/ml
Reference: random background probes
Reading: higher = stronger binding
Endpoint: log fluorescence
Constant ends, left off below: GCCTAGCAC … GTCTTGATTCGCTTGACGCTGCTG
GACGGTATCCTGCTGCTGACGTGCTAG: -0.13 z-score
TCATTTCTATCTCTGTTACTGTGCTAG: 2.37 z-score
TTAGATCTCAGTATCCATTAGTGCTAG: 0.583 z-score
TCAAGCTTTTCATTTTTTACTGTGCTA: 1.46 z-score
TCATTTTTGTATTTTTGACTGTGCTAG: 1.3 z-score
TCACCTCTAGGTTCTCTGACTGTGCTA: -0.304 z-score
CTTTCTTTTTTTCTTTTATTGTGCTAG: 2.89 z-score
GAGGATTTCGGGTATCGAGACGTGCTA: 3.67 z-score
GACTTTCTTTCAAATGAAGGAGTGCTA: 4.07 z-score
TTAGGTATCGCTTTCGGTTAGTGCTAG: 10.4 z-score
CCCGCCCCGCCCCGCCCGCAGTGCTAG: -0.718 z-score
GACGTTCTCCTTATCCTGACGTGCTAG: 0.174 z-score
GACGGTTTCCTTATCATGACGTGCTAG: 0.856 z-score
GACGGACTGGACACTGGTGACGTGCTA: -0.554 z-score
GACGAACGGAGTCTCGAGACGTGCTAG: -0.384 z-score
TTAGGTCTCCTACTGCATTAGTGCTAG: -0.247 z-score
TTAGGCATCGGTATCGGTTAGTGCTAG: 5.26 z-score
GACTGTTTCGGGTATCGGGACGTGCTA: 8.45 z-score
TTAGGTTCCGGTTTCGGTGAGTGCTAG: 8.29 z-score
TCAACTTTCTTTCAAATACTGTGCTAG: 3.17 z-score

Excerpt of the above (set 1):
K4A: 5.11
R5L: 1.35
R6S: 3.86
F8M: 0.174
S2M: 5.54
L7G: 0.575
R5P: -0.142
P13Q: 5.31
P12C: 5.48
